Assay results of several laboratories.
A part holds a random share of what one study measured. Positions count from the first letter of the parent shown.

Block 1 — Substance: KRT8 (Homo sapiens, UniProt P05787); method: cross-linking MS; sample: cells; added: BSPNO
partner | cross-linked residues
KRT7 (Homo sapiens, UniProt P08729) | K285 to K365
KRT20 (Homo sapiens, UniProt P35900) | K264 to K245
NTS (Homo sapiens, UniProt P30990) | K160 to K156
CSPP1 (Homo sapiens, UniProt Q1MSJ5) | K11 to K974
FBLN7 (Homo sapiens, UniProt Q53RD9) | K264 to K45
KRT74 (Homo sapiens, UniProt Q7RTS7) | K264 to K150
CCDC88A (Homo sapiens, UniProt Q3V6T2) | K160 to K839
KRT77 (Homo sapiens, UniProt Q7Z794) | K176 to K253

Block 2 — method: universal PBM; molecule type: double-stranded DNA, one strand shown; sample: in vitro; tested at: not given; direction: higher = stronger binding
Target: Sal-like protein 4, full length isoform B (SALL4, Homo sapiens, UniProt Q9UJQ4-2, residues 1-616)
Notes: 8-mer, flanks averaged, mean of replicates
Strand | E-score
AAGGAGTG | -0.0293
CTTGCCAC | 0.0241
CACAAATC | -0.0198
CGGCTTTA | -0.00444
CAATAGGA | 0.145
GCATTTAC | 0.169
TAACTACA | 0.175
CCTACAAA | 0.114

Block 3 — method: protein-binding microarray; molecule type: hairpin DNA; sample: in vitro; tested at: not given; baseline: not given; direction: higher = stronger binding
Target: Runt-related transcription factor 1, full length (RUNX1, Homo sapiens, UniProt Q01196-8, residues 1-480)
Notes: whole hairpin DNA, median over replicate spots
Strand | median fluorescence [a.u.]
GAGGCCTGTCGCGGGTGGCCTCCTGGCCACCCGCGACAGGCCTCACACTC | 2080
GAGGCCTCTTGTGGTTGGCCTCCTGGCCAACCACAAGAGGCCTCACACTC | 3030
GAGGCCTCGCGCGGTTGGCCTCCTGGCCAACCGCGCGAGGCCTCACACTC (5mC at 8) | 2340
CTCAGTTCTGTGTGCTGGACTCCTGTCCAGCACACAGAACTGAGACACTC | 1840
GGGGCCTGTCGCGGTTGGCCTCCTGGCCAACCGCGACAGGCCCCACACTC (5mC at 43) | 3110
GAGGCCTGCCGCGGTTGGCCTCCTGGCCAACCGCGGCAGGCCTCACACTC (5mC at 9) | 2620
GAGGCCTGTCGCGGTCGGCCTCCTGGCCGACCGCGACAGGCCTCACACTC | 2470
GAGGCCCACGCGCAACAGCCTCCTGGCTGTTGCGCGTGGGCCTCACACTC (5mC at 9) | 1840

Single results of other studies — starting sequence: viral docking peptide; KGVKRKLFAEDSS
Change | target | assay | system | conditions | how to read | measurement | result
KGVKRKLRAEDSS [F8R] | CCND1, cyclin fold, Cln2 fusion (human) | yeast growth competition, sequencing | yeast | strong parent motif | baseline: not given, higher = stronger binding | normalised enrichment score | 0.0101

Excerpt of the above (block 1):
partner | cross-linked residues
NTS (Homo sapiens, UniProt P30990) | K160 to K156
KRT77 (Homo sapiens, UniProt Q7Z794) | K176 to K253
